Results gathered from unrelated publications.
Numbered parts are unrelated; each lists some results of a single study. Substitutions count along the parent as printed.

Set 1
Target: ABI1, truncated, D143A, DHFR fusion (Arabidopsis thaliana)
Technique: DHFR PCA, deep sequencing
Sample: yeast
Notes: methotrexate growth selection, single substitutions
Added: (+)-ABA 2500 µM
Relative to: wild-type fitted maximum
Direction: higher = stronger binding
Parent: PYL1, truncated, DHFR fusion (Arabidopsis thaliana); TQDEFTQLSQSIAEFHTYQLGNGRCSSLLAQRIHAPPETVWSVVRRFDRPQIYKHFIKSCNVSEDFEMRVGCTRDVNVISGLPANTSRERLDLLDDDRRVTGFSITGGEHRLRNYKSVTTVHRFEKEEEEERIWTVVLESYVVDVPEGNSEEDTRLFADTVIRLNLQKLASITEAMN; partner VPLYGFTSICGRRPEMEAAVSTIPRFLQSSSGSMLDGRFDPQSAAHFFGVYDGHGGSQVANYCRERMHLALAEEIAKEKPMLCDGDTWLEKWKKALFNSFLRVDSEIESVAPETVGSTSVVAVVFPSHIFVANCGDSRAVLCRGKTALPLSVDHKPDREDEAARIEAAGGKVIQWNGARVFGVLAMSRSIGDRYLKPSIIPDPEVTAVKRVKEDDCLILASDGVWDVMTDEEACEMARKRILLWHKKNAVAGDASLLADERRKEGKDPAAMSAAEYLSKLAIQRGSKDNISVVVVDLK
Change | relative binding score [%]
I172H | 95.1
E129V | 107
Q19P | 95.5
H55P | 97
I79C | 103
K168D | 76.1
R49K | 94.9
I79G | 88.6
H34K | 98.8
R45W | 2.01
D96S | 87.3
D48Q | 81
K54Q | -6.37
F47Q | 20.1
S171I | 93.7

Set 2
Target: RNA binding protein fox-1 homolog 2, RRM domain, GST-SBP tag (RBFOX2, Homo sapiens, UniProt O43251-10, residues 100-194)
Technique: RNA Bind-n-Seq
Form: RNA
Sample: in vitro
Tested at: 365 nM
Notes: natural RNA segment, single round, ends assumed
Relative to: no-protein control
Direction: higher = stronger binding
Shared flanks, not repeated: GGGAGUUCUACAGUCCGACGAUC … UGGAAUUCUCGGGUGCCAA
Residues (chain): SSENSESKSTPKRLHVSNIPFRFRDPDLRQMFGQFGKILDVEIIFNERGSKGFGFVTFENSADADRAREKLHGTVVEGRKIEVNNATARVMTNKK
Oligonucleotide | RBNS enrichment (R)
ACCUUGCCUUUACCCAAACUUUGUGGUUUACCCCUUCACCUCCCAGGGGCCCCGACUCUUAAGGGGGAGGGUGUGGCUUAACUGCAGCGUUGGAACCUUAAAGUGGGAAA | 0.266
GCUCUAGUGCUGUAGGAACCAAGAGCCAGCCCCAGGUUCCCCGAGGCAGUAAAAAUCCAGCACAGGGGGCUGUGUCCCUAAGGCAAGCCCUGAUUACCUUUAAAAAAAAC | 0.291
AGCUCUGGCCAGUCACCUUUAACCCAGCAGCUUGGGUUCAGUGUCACCUACGGAUUAUUUCUCUUUCUCGCCUGCCCUUAGGAUCUUAAGCUAAAGGGCACUGUUUAUUU | 0.333
UGUAAUUAUCCUCUGGUGAUGCUGUUUCUCGUUAGUGGCAGUAGUGCCUCCGUCUCCUAGUGAUAAUGCUCCAAGUCUAUGAACUGUUAAAUCAGCAUUCAUUUUAAGAA | 0.47
UGGGUACUCCAGGCACACACCUUUCUGAAAUCCUUCUCCAGCCAGCUGCUGCAGACAAAAGAUCACAUUUCUGGGAAGAUGAGAACUUGUUUCCAGACCAGCAUCCAGUG | 0.717
GGUGCACGGAGAGCCUGCCCACUAGUCUUCUGAGAUCUUGGGCCUGUUGCUAGCCACGUGGGAAGCUCAUCUUUCCCAGCAUCUACCCUGCUCUGAAAAUAGGUGCCCAG | 2.38
AGGUAUGUUAUGCACUACAGCCUGAUCUUUUCAGUCUAAGACAGCAUGGCUUCACUUUCCUGUGUUAUGAGAAGGUCACACUUUGGAAUACUGAAGGACAAUCCUGAAGU | 3.42
UGGCUGUCCUUUCCAGUGGCCUGGCUCCGCUGUGUGGAUGGGGAGAUCGGGGCCAGAGGCAGAACCCUGGUGAGGAAGCUCCAGUCCUGCUCUCUACCCAGCCCAUCUUG | 0.413
CAGCAGAUGCUGGGGUAUGGCCUCAAGACCUUCCCUCUCUCCUGAAGAUGUCUCAACCCUACAAAGACUAAAGUGCGCCAUCCCAGUGCCACAGAAGGCAGAGGGUAGUU | 0.193
CCAUGCAUGGAAAAGUGGCCUGUUGGUUCAACGUGGUUUCCUUGUACUUGAUCCUCCUGAAAUGAGAGAUUUUCCUGAGAUGACUGAGUAUGGAGAUUACCAGGCAGAUG | 15.1
GGAAAAGAACCAACUCGGGCUCUCAACAGCAUUAAACCUGAUGCUUGUGUUUGUAAGUCUGCAUCUGCAUAAGUACUGACUCUGGAUGGAAAAGCUUGGAAGACCUUGGU | 1.06
AUCAUGCUGGUGAGAAAGUAUGAUUUCCCAACCUCUGCUUGUGGUGUUGGAAGGAGUGGCCUGGCCAGGCAGGUUGAUGUAAGGCUAUGGGAGACCCAAGGGGAACACAU | 1.76

Set 3
Target: Ras GTPase-activating protein-binding protein 1, C-terminal RGG region (G3BP1, Homo sapiens, UniProt Q13283)
Sequence of UniProt Q13283 (whole entry, looked up): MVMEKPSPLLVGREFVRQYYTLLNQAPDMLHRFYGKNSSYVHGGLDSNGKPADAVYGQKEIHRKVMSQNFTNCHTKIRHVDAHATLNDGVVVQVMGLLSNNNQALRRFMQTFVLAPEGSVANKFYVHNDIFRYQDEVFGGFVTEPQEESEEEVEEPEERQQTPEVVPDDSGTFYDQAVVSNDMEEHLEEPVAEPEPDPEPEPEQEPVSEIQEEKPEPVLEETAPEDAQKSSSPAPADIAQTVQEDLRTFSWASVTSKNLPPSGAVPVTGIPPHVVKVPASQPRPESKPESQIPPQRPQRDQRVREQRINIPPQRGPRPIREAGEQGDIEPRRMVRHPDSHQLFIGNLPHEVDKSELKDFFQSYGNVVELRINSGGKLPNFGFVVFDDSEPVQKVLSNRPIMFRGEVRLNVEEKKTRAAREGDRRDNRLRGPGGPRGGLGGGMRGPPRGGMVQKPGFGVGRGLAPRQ
Technique: RNA Bind-n-Seq
Form: RNA
Sample: in vitro
Tested at: 1 µM
Notes: whole 134-nt RNA, ends assumed
Added: 150 mM KCl
Relative to: input library
Direction: higher = stronger binding
Shared flanks, not repeated: GGGAGUUCUACAGUCCGACGAUC … UGGAAUUCUCGGGUGUCAAGG
Oligonucleotide | log2 enrichment
ACCGUGCAGGUGGGCAUCUUUGGGAAGUGGGGCAAGGGGGGGAUAGGGAGGGGGGUAACACUUUGGGAACAGGUGGUCCCAGGUCGUUUC | -1.06
GUCCUGUGCUACACAUCGUAUGUACCGAAUCAAACCCCCCCAAACCCAAACCCCCAAAAAAGUAUUAUGUUACGCCGUUCGGAUCUGCAC | -0.809
GCAGGAAGUAAAAACAAAUGGAAAUGCUUCGGAUAGUGGCAGGGGUGGGGGUUGCUAAGGAAAAAGUGGGAUGGGAGUGGGUAAAGAGUU | 2.06
AGUCCUGUGCUACACAUCGUAUGUACCGAAUCGGGGAAAAGGGAAAAGGGAAAAGGGAAAGUAUUAUGUUACGCCGUUCGGAUCUGCACU | 1.17
GUCCUGUGCUACACAUCGUAUGUACCGAAUCGGAAAAAAGGGAAAAAAGGAAAAAAGGGAAAGUAUUAUGUUACGCCGUUCGGAUCUGCA | -1.67
AAGUCCUGUGCUACACAUCGUAUGUACCGAAUCGGAAAGGUUUUUUUGGUUUUUGGAAAGUAUUAUGUUACGCCGUUCGGAUCUGCACUU | -2.33
GUCCUGUGCUACACAUCGUAUGUACCGAAUCGGGGAAAAAAAGGGGAGGGGAAAGGGGAAAGUAUUAUGUUACGCCGUUCGGAUCUGCAC | 2.13
UCAAGUCCUGUGCUACACAUCGUAUGUACCGAAUCGGCCCGGCCCGGCCCGGGGAAAGUAUUAUGUUACGCCGUUCGGAUCUGCACUUCC | -1.54
CUCAAGUCCUGUGCUACACAUCGUAUGUACCGAAUCGGAAAGGAGGUUUUUGGAAAGUAUUAUGUUACGCCGUUCGGAUCUGCACUUCCA | -1.23
GUCCUGUGCUACACAUCGUAUGUACCGAAUCGGGGAGGGGAAAAAGGGGAAAAAGGGGAAAGUAUUAUGUUACGCCGUUCGGAUCUGCAC | 1.38
CUCAAGUCCUGUGCUACACAUCGUAUGUACCGAAUCGGCCGGGGCCGGGCCGGAAAGUAUUAUGUUACGCCGUUCGGAUCUGCACUUCCA | -1.02
GUCCUGUGCUACACAUCGUAUGUACCGAAUCGGGUUUGGGUUUUUGGGUUUUUUUGGGAAAGUAUUAUGUUACGCCGUUCGGAUCUGCAC | 0.194
GUCCUGUGCUACACAUCGUAUGUACCGAAUCGGGUUUUUGGGAAAAAAAGGGAAAGGGAAAGUAUUAUGUUACGCCGUUCGGAUCUGCAC | -0.5
UGGGAGGUGGAUUUUGUUUAUUUUUUUAGCUCAUUUUCAGGGGUGGGAAUUUUUUUUUAAUAUGUGUCAUGAAUAAAGUUGUUUUUGAAA | 3.91

Set 4
Target: Histone acetyltransferase KAT6A, winged helix 1, GST fusion (KAT6A, Homo sapiens, UniProt Q92794, residues 1-85)
Technique: protein binding microarray
Form: double-stranded DNA, one strand shown
Sample: in vitro
Tested at: not given
Notes: 8-mer, flanks averaged, mean of 2 arrays, mostly near background
Relative to: not given
Direction: higher = stronger binding
Residues (chain): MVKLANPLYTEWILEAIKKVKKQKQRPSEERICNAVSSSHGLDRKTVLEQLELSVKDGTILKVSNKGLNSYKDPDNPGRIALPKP
Oligonucleotide | E-score
ATCAACTA | -0.00455
CATGTGGG | -0.178
ACCACGTG | -0.11
AAAGCGAT | 0.0962
AATTCCCT | -0.232
CATACCCG | 0.281
ACCTCGGC | 0.179
GAAGTGTA | -0.0584
AGGGGAGC | -0.0963
CGTAGCGC | 0.372
AGCGAGTG | 0.0259
CCACGCTA | 0.0747
ATCGGTAA | 0.0621
ATCGGCGG | 0.447
CGCTGAAA | 0.11
GCGGACAC | 0.272
ATAGTGGC | -0.0426
AAGTGACC | -0.222
AGATACCC | 0.0128
CGACTACG | 0.174
CAACGATA | -0.0335
AGACGGAA | 0.0634
ATGACATC | 0.0518
ACCTTCCA | -0.0758
ATTCGGGC | 0.0492

Set 5
Target: CCNA2, cyclin fold, Cln2 fusion (human)
Technique: yeast growth competition, sequencing
Sample: yeast
Notes: strong parent motif
Relative to: not given
Direction: higher = stronger binding
Parent: MICAL3 docking peptide (human); LQLRRQLSFSEDS
Change | normalised enrichment score
Q6H | 3.13
E11H | 2.63
S10P | 2.93
R4S | 1.17
S10I | 2.09
L3D | 0.0498
D12C | 4.33
E11P | 2.43
S8W | 2.22
R5W | 0.568
F9C | 0.0941
E11N | 3.32
S8I | 4.75
R5N | 0.519
S10Q | 2.15
S8K | 3.85

Set 6
Target: Phosphate system positive regulatory protein PHO4, full length, GST-tagged (PHO4, Saccharomyces cerevisiae, UniProt P07270, residues 1-312)
Technique: competition protein-binding microarray
Form: double-stranded DNA, one strand shown
Sample: in vitro
Tested at: 2 µM
Notes: whole 60-bp probe, lowest competitor level
Added: Cbf1 competitor, 0.05 µM
Direction: higher = stronger binding
Shared flanks, not repeated: … GTCTTGATTCGCTTGACGCTGCTG
Construct (chain): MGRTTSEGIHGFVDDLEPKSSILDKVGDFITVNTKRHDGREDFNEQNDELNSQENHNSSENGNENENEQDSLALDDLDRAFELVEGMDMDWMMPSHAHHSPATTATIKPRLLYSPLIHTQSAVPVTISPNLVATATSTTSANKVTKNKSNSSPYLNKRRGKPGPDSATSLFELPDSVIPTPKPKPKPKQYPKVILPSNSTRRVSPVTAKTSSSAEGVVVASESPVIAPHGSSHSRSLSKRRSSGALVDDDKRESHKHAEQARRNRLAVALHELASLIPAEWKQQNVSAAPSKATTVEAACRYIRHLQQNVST
Oligonucleotide | fluorescence intensity [a.u.]
TTTGCAGGAAACAGCCGCGTGCCAGTTTGCTCGATA | 10500
CTAACGAAGGTTTGAGATGTGGGTGACAAGCCAAGT | 3750
AATTTTGGAGCTTGACATGTGGCCTCAATTGCATAA | 10000
CTCAAGGGCGTACACCATGTGTTGGACATAAACCTC | 9050
ACATCCTGCGAATCTCATGTGTGTACTGAATCCATC | 6340
TTTTAGCCCCACCTCCAGGTGATGCTTATTTGCTAG | 3880
CTAACGAAGGTTTGATAGGTGGGTGACAAGCCAAGT | 3610
AGGCACCATTCATTTGTCGTGGCCGCAATGTGTCCC | 5580
CATCATATATGTCGGCACGTTTTTCCATTCAGGAAA | 14700
AAGGAACAGTTCCATCACGTGTGTTTGTTTGTTGGG | 16500
AATTTGGTAAGCCATCACGTGGTGAGACAGTTTTCC | 17500
CTAACGAAGGTTTGTCACACGACTTACAAGCCAAGT | 5920
CATACCCAACCTTGAGTGGTGGGTGAAGATATTTGT | 4460
CGCAGTATATCGTTACGCGTGAGGAGGATCTGCGCT | 5260
CATATGTTTTAGCTGATTATAATTCTTCGATCGATG | 3810
CGGGGTTAAGTTTTTCACGTGAAGTGCTTGCAGCAG | 8570
TAGGACCAATTTGGCAATGTGACTCGCGGAATATGG | 5790

Some of these lines once more (set 4):
Oligonucleotide | E-score
GAAGTGTA | -0.0584
AGGGGAGC | -0.0963
CGTAGCGC | 0.372
AGCGAGTG | 0.0259
CCACGCTA | 0.0747
ATCGGTAA | 0.0621
ATCGGCGG | 0.447
CGCTGAAA | 0.11
GCGGACAC | 0.272
ATAGTGGC | -0.0426
AAGTGACC | -0.222
AGATACCC | 0.0128
CGACTACG | 0.174
CAACGATA | -0.0335
AGACGGAA | 0.0634
ATGACATC | 0.0518
